Published values pooled from the literature.
Lines come from different studies, so protocols differ. Numbers after ± are the reported error.
T1: DNA aptamer; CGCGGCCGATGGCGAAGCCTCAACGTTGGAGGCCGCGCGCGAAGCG
Sequence of UniProt Q8NER1 (whole entry, looked up): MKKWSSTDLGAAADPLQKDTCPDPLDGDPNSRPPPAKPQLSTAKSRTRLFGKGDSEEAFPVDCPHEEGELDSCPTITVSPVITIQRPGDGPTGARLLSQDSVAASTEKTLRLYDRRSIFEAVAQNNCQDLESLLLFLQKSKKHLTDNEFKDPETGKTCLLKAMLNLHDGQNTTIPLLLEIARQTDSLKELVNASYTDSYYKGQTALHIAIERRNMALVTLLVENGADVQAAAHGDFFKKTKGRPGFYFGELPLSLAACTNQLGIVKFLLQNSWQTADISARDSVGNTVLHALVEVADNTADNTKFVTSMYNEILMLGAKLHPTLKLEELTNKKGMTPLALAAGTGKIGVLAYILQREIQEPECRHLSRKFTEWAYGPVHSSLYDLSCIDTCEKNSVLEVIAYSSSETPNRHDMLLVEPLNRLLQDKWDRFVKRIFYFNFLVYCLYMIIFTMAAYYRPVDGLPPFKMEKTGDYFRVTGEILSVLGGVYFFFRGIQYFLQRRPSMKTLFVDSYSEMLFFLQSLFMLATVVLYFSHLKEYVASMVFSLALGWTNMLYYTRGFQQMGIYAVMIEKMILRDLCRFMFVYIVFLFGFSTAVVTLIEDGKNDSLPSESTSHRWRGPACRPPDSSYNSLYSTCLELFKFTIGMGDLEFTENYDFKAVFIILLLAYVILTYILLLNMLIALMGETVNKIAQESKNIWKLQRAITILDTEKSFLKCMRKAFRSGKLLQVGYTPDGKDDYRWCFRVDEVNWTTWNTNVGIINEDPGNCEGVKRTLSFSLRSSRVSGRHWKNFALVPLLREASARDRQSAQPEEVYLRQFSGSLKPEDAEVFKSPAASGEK
Sequence of UniProt P11388 (whole entry, looked up): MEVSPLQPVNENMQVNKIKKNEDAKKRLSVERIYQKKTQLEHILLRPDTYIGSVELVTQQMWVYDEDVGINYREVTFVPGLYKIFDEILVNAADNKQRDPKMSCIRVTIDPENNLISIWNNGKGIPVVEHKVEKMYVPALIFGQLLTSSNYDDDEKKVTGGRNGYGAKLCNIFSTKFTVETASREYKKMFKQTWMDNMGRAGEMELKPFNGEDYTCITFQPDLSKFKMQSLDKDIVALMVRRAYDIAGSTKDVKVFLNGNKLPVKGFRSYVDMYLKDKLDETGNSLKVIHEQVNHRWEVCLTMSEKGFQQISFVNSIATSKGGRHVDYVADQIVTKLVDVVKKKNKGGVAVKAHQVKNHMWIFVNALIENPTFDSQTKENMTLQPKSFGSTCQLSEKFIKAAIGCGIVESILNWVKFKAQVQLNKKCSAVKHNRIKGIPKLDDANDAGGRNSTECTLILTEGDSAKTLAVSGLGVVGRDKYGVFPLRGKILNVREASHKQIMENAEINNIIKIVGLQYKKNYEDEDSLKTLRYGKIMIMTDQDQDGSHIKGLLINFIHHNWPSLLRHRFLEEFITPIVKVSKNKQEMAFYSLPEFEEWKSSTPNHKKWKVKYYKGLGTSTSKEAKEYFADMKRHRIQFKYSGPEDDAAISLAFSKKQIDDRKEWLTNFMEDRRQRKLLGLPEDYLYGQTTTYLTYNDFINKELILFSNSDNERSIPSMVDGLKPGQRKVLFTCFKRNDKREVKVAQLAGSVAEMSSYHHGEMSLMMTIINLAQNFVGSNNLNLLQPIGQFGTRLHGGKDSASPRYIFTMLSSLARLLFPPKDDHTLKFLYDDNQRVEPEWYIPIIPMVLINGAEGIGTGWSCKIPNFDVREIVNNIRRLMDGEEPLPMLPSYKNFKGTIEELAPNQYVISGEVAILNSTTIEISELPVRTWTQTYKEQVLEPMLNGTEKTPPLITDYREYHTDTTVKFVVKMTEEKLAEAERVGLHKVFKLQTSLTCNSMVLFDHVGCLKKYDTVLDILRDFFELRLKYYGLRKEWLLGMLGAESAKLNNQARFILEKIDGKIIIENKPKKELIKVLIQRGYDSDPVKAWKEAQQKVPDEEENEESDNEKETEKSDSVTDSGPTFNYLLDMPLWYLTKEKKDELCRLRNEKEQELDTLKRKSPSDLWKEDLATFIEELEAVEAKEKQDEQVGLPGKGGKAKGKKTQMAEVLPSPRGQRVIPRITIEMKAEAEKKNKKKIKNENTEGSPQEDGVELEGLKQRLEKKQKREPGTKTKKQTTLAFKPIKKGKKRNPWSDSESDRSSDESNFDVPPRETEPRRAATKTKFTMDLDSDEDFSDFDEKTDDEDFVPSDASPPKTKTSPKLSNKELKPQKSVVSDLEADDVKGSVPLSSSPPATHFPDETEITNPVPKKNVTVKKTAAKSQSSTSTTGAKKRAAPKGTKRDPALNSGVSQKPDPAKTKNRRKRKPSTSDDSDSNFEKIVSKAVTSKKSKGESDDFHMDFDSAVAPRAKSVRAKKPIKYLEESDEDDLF

With `CC[C@H](C)[C@H](NC(=O)[C@H](CCCCN)NC(=O)[C@H](CCC(=O)O)NC(=O)[C@H](CCCCN)NC(=O)[C@H](CO)NC(=O)[C@H](CCCCN)NC(=O)[C@H](CCCNC(=N)N)NC(=O)[C@H](Cc1ccccc1)NC(=O)[C@H](Cc1ccccc1)NC(=O)[C@H](CC(=O)O)NC(=O)CNC(=O)[C@H](CC(C)C)NC(=O)[C@@H](N)CC(C)C)C(=O)NCC(=O)N[C@@H](CCCCN)C(=O)N[C@@H](CCC(=O)O)C(=O)N[C@@H](Cc1ccccc1)C(=O)N[C@@H](CCCCN)C(=O)N[C@@H](CCCNC(=N)N)C(=O)N[C@H](C(=O)N[C@H](C(=O)N[C@@H](CCC(N)=O)C(=O)N[C@@H](CCCNC(=N)N)C(=O)N[C@H](C(=O)N[C@@H](CCCCN)C(=O)N[C@@H](CC(=O)O)C(=O)N[C@@H](Cc1ccccc1)C(=O)N[C@@H](CC(C)C)C(=O)N[C@@H](CCCNC(=N)N)C(=O)N[C@@H](CC(N)=O)C(=O)N[C@@H](CC(C)C)C(=O)N[C@H](C(=O)N1CCC[C@H]1C(=O)N[C@@H](CCCNC(=N)N)C(=O)N[C@H](C(=O)N[C@@H](CCC(=O)O)C(=O)N[C@@H](CO)C(=O)O)[C@@H](C)O)C(C)C)[C@@H](C)CC)C(C)C)[C@@H](C)CC` the MIC was 22.4 µM (Clostridium perfringens; ATCC 13124).
The IC50 of `NCC(NC(=O)c1ccc(-c2ccc3c(c2)OCO3)[nH]1)c1ncc(CO)s1` (stereo not drawn) is reported as 2.9 ± 0.9 µM (human immunodeficiency virus 1; viral replication; PBMC; 168 h).
With `COc1cc([C@@H]2c3cc4c(cc3[C@@H](O[C@@H]3O[C@@H]5CO[C@@H](C)O[C@H]5[C@H](O)[C@H]3O)[C@H]3COC(=O)[C@H]23)OCO4)cc(OC)c1O` the linear DNA was 13.7% (DNA topoisomerase 2-alpha (TOP2A, Homo sapiens, UniProt P11388); DNA cleavage; 50 µM).
For `OC[C@H]1O[C@@H](O[C@@H]2[C@@H](O)[C@H](O[C@H]3[C@H](O)[C@@H](CO)OC(O)[C@@H]3O)O[C@H](CO)[C@H]2O)[C@H](O)[C@@H](O)[C@@H]1O` (stereo partly drawn), the ΔG was -24.8 kcal/mol (Bacteroides thetaiotaomicron; binding, ITC; pH 7.0, 25 °C, distal domain).
The EC90 of `CC(C)C[C@H](NC(=O)OCc1ccccc1)C(=O)N[C@H](C=O)C[C@@H]1CCCNC1=O` is reported as 6.6 ± 1.8 µM (SARS-CoV-2; viral replication, RT-qPCR viral load; Calu-3; 72 h).
`Cc1ccc2nc(C)c(C(=O)NCc3ccccc3)n2c1` has an MIC of 0.1 µM (Mycobacterium tuberculosis; growth (>90% inhibition); H37Rv, glycerol-alanine-salts medium).
For `Cc1c(S(=O)(=O)N2CCc3n[nH]cc3C2)cc(C(=O)NCc2cccc3cnn(C)c23)n1C`, the EC50 was 0.018 µM (SARS-CoV-2; viral replication; Huh7.5 cells, WA1/2020).
`OC[C@H]1O[C@@H](O[C@@H]2[C@@H](O)[C@H](O[C@@H]3[C@@H](O)[C@H](O[C@H]4[C@H](O)[C@@H](CO)OC(O)[C@@H]4O)O[C@H](CO)[C@H]3O)O[C@H](CO)[C@H]2O)[C@H](O)[C@@H](O)[C@@H]1O` (stereo partly drawn) gave a ΔH of -20.3 kcal/mol (Bacteroides thetaiotaomicron; binding, ITC; pH 7.0, 25 °C, distal domain).
For `C=C(C)[C@]12C[C@@H](C)[C@@]34O[C@](Cc5ccccc5)(O[C@@H]1[C@@H]3C=C(COC(=O)Cc1ccc(O)c(OC)c1)C[C@]1(O)C(=O)C(C)=C[C@@H]41)O2`, the EC50 was 0.00776 µM (Transient receptor potential cation channel subfamily V member 1 (TRPV1, Homo sapiens, UniProt Q8NER1); K+ efflux, agonist, BRET; HEK293T).
`Cc1c(S(=O)(=O)N2CCn3nccc3C2)cc(C(=O)NCc2cccnc2N2CCCC2)n1C` gave an EC50 of 3.3 µM (SARS-CoV-2; viral replication; Huh7.5 cells, WA1/2020).
With `CC1COc2ccccc2N1C(=O)C(Cl)Cl` (stereo not drawn) the remaining compound was 63 ± 1% (carboxylesterase; male rhesus monkey liver microsomes; 5 µM, 30 min, pH 7.4, without NADPH).
`COC(=O)Nc1c(N)nc(-c2nn(Cc3ccccc3F)c3ncc(F)cc23)nc1N`: “seated DBP maximum decrease” -1.12 mmHg (healthy white men; dose not given, day 14, 336 h, LS mean difference, together with: sildenafil 50 mg; relative to: placebo).
For `OC[C@H]1O[C@@H](O[C@@H]2[C@@H](O)[C@H](O[C@@H]3[C@@H](O)[C@H](O[C@@H]4[C@@H](O)[C@H](O[C@@H]5[C@@H](O)[C@H](O[C@H]6[C@H](O)[C@@H](CO)OC(O)[C@@H]6O)O[C@H](CO)[C@H]5O)O[C@H](CO)[C@H]4O)O[C@H](CO)[C@H]3O)O[C@H](CO)[C@H]2O)[C@H](O)[C@@H](O)[C@@H]1O` (stereo partly drawn), the -TΔS was 23.3 kcal/mol (Bacteroides thetaiotaomicron; binding, ITC; pH 7.0, 25 °C, distal domain).
`CNCC(NC(=O)c1ccc(-c2ccc3c(c2)OCO3)[nH]1)c1nc(CO)cs1` (stereo not drawn) has an IC50 of 2.6 ± 0.7 µM (human immunodeficiency virus 1; viral replication; PBMC; 168 h).
`COc1ccccc1CNC(=O)c1cc(S(=O)(=O)N2CCn3nccc3C2)c(C)n1C` gave an EC50 of 9 µM (SARS-CoV-2; viral replication; Huh7.5 cells, WA1/2020).
For `N#CCC1CCN(c2nc(Nc3ccc(N4CCC(O)CC4)cc3)c3c(=O)[nH]ncc3n2)CC1`, “serum level change” read -1.18 (Olink multiplex, measured: CD163; human, serum; 20 mg, day 15, unit not given; relative to: placebo).
`C[C@H](NC(=O)[C@@H](c1cccnc1)N(C(=O)C(Cl)Cl)c1ccc(-c2ccccc2)cc1)c1ccc(Br)cc1` gave an EC50 of 3.24 µM (SARS-CoV-2; viral replication; Caco-2 hACE2).
`hexadimethrine bromide` — result for infection efficiency: “increased” (feline infectious peritonitis virus; plaque; fcwf-4, type I strain KU-2; concentration not given).
`C[C@H]1O[C@@H](O[C@H]2[C@@H](O)C[C@H](O[C@H]3[C@@H](O)C[C@H](O[C@H]4CC[C@@]5(C)[C@H](CC[C@@H]6[C@@H]5CC[C@]5(C)[C@@H](C7=CC(=O)OC7)CC[C@]65O)C4)O[C@@H]3C)O[C@@H]2C)C[C@H](O)[C@@H]1O` gave an EC50 of 0.075 µM (human adenovirus C5; progeny virus production; A549; 72 h).
With `OC[C@H]1O[C@@H](O[C@@H]2[C@@H](O)[C@H](O[C@@H]3[C@@H](O)[C@H](O[C@@H]4[C@@H](O)[C@H](O[C@H]5[C@H](O)[C@@H](CO)OC(O)[C@@H]5O)O[C@H](CO)[C@H]4O)O[C@H](CO)[C@H]3O)O[C@H](CO)[C@H]2O)[C@H](O)[C@@H](O)[C@@H]1O` (stereo partly drawn) the ΔH was -19.4 kcal/mol (Bacteroides thetaiotaomicron; binding, ITC; pH 7.0, 25 °C, distal domain).
`Cc1c(S(=O)(=O)N2CCc3[nH]ncc3C2)cc(C(=O)NCc2cccnc2N2CCCC2)n1C` has an EC50 of 0.086 µM (SARS-CoV-2; viral replication; Huh7.5 cells, WA1/2020).
`Fc1ccccc1Cc1nc(-c2nc(C(F)(F)F)n[nH]2)cn2ccnc12` — result for “subjects with reproductive-breast TEAEs”: 7.7% (healthy human subjects, both sexes; oral, 10 mg, fed).
With `COc1ccc([C@@H](C)NC(=O)c2cc(N)ccc2C)c2ccccc12` the EC50 was 36 µM (SARS-CoV-2; viral replication; Vero E6).
`CO/N=C(\C(=O)N[C@@H]1C(=O)N2C(C(=O)O)=C(COC(C)=O)CS[C@H]12)c1csc(N)n1` gave an MIC of greater than 16 µg/mL (Pseudomonas aeruginosa; clinical isolate RKI-No_493/15).
For `Cc1cn([C@H]2C[C@H](N=[N+]=[N-])[C@@H](CO)O2)c(=O)[nH]c1=O`, the EC50 was 0.005 ± 0.002 µM (HIV-1; viral replication, reverse transcriptase; human PBMC, 92HT599 (CXCR4-tropic)).
Under “relative specific activity”, `[Co+2]` is recorded as 0.091 (uncharacterized protein (Bacteroides thetaiotaomicron, UniProt Q8A183); phosphatase activity, activator, phosphate release; 5 mM, EDTA-treated enzyme, together with: substrate 20 mM; relative to: activity with Mg2+).
Under “Cmax at steady state”, `COC(=O)Nc1c(N)nc(-c2nn(Cc3ccccc3F)c3ncc(F)cc23)nc1N` is recorded as 485 ng/mL (healthy male humans, plasma; oral, 10 mg once daily, phase I DDI study, without sildenafil).
Under “relative specific activity”, `[Mg+2]` is recorded as 1 (uncharacterized protein (Bacteroides thetaiotaomicron, UniProt Q8A4G9); phosphatase activity, activator, phosphate release; 5 mM, EDTA-treated enzyme, together with: substrate 9 mM; relative to: activity with this ion).
For `C=C1[C@@H](O)[C@@H]2O[C@]3(CC[C@H](/C=C/[C@@H](C)[C@@H]4CC(C)=C[C@@]5(O[C@H](C[C@@](C)(O)C(=O)O)CC[C@H]5O)O4)O3)CC[C@H]2O[C@@H]1[C@@H](O)C[C@H](C)[C@H]1O[C@@]2(CCCCO2)CC[C@H]1C`, the Kd was 0.254 µM (T1, DNA aptamer; microscale thermophoresis; pH 7.5, 25 °C, NaCl 150 mM).
For `Cc1c(S(=O)(=O)N2CCC(C)CC2)cc(C(=O)NCc2cccnc2N2CCCC2)n1C`, the EC50 was 5.53 µM (SARS-CoV-2; viral replication; Huh7.5 cells, WA1/2020).

A few entries again:
The IC50 of `NCC(NC(=O)c1ccc(-c2ccc3c(c2)OCO3)[nH]1)c1ncc(CO)s1` (stereo not drawn) is reported as 2.9 ± 0.9 µM (human immunodeficiency virus 1; viral replication; PBMC; 168 h).
With `COc1cc([C@@H]2c3cc4c(cc3[C@@H](O[C@@H]3O[C@@H]5CO[C@@H](C)O[C@H]5[C@H](O)[C@H]3O)[C@H]3COC(=O)[C@H]23)OCO4)cc(OC)c1O` the linear DNA was 13.7% (DNA topoisomerase 2-alpha (TOP2A, Homo sapiens, UniProt P11388); DNA cleavage; 50 µM).
For `OC[C@H]1O[C@@H](O[C@@H]2[C@@H](O)[C@H](O[C@H]3[C@H](O)[C@@H](CO)OC(O)[C@@H]3O)O[C@H](CO)[C@H]2O)[C@H](O)[C@@H](O)[C@@H]1O` (stereo partly drawn), the ΔG was -24.8 kcal/mol (Bacteroides thetaiotaomicron; binding, ITC; pH 7.0, 25 °C, distal domain).
